# Results collected from several papers.
# Protocols differ between the studies behind these lines. Values joined by “and” are separate records of one study, mostly repeats; a detail may differ. ± marks the error that the study gave.
# UCHL1: Ubiquitin carboxyl-terminal hydrolase isozyme L1 (UCHL1, Homo sapiens, UniProt P09936)
# UniProt P09936, sequence (whole entry, looked up): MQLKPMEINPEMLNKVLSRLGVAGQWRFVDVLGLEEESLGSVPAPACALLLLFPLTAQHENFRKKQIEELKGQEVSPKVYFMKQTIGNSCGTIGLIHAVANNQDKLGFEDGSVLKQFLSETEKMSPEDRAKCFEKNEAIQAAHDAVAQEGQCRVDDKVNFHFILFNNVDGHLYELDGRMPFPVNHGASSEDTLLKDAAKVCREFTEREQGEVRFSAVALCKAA
SMILES,target or system,assay,system,setting,how to read,measurement,result
O=C(CCl)N1N=C(c2ccccc2)CC1c1ccccc1 (stereo not drawn),UCHL1,"covalent, intact protein LC-MS",,12.5 µM,,labelling,20.5%
C[C@]12CC[C@@H]3c4ccc(O)cc4CC[C@H]3[C@@H]1CC[C@@H]2O,,"RT-qPCR, measured: CO",Arabidopsis thaliana ING1:FLAG seedlings,"20 µM, 6 h after treatment, sampled at ZT12, replicate rep1, unit not given",reference: TUB2,mRNA level,0.0835
Cn1cc(Nc2nccc(-c3ccc4c(c3)CN(C3COC3)CC[C@H]4NC(=O)c3cn(C(C)(C)C)nn3)n2)cn1,,measured: Ethanol Degradation II,"splenic B cells, Mus musculus","30 mg/kg, together with: IgD activation","reference: vehicle, direction not given",pathway activation z-score,2.24
O=P(O)(O)C(Cl)(Cl)P(=O)(O)O,,,"Mus musculus, subarachnoid haemorrhage, hippocampal fissure","concentration not given, day 7",reference: total area,Iba1-positive area,2.39% and 1.64% and 2.31%
N#Cc1ccn2c(-c3ccncc3)c(-c3ccc(F)cc3)nc2c1,,"kinase binding, competitor, MIB/MS competition, measured: TPK2",Candida albicans cell lysate,1 µM,reference: DMSO,log2 fold change,0.202
NC(=O)c1cnc2[nH]ccc2c1N[C@@H]1[C@@H]2CC3C[C@H]1C[C@@](O)(C3)C2,,"CD4+ effector T cells, flow cytometry","Caucasian humans, peripheral blood",20 mg single dose,reference: baseline,percent change,0%
OC(CCN1CCCCC1)(c1ccccc1)C1CC2C=CC1C2 (stereo not drawn),,resting-state EEG,healthy elderly humans,"oral, 4 mg, eyes open, LS mean",reference: baseline,change in EEG Alpha1-power Fz-Cz,2%
CCCn1cc(C)c2c(=O)[nH]c(-c3cc(S(=O)(=O)N4CCN(CC)CC4)ccc3OCC)nc21,,,supine,"concentration not given, 0 to 4 h",reference: baseline,maximum change in diastolic blood pressure,-7.67 ± 4.08 mmHg
COc1cc(/C=C/C(=O)CC(=O)/C=C/c2ccc(O)c(OC)c2)ccc1O,,,high-fat diet hyperlipidaemic rat,"oral, 200 mg/kg daily, 4 weeks",,plasma TG,0.76 ± 0.18 mmol/L
N#Cc1ccc2c(c1)[C@H]1CCCN(C(=O)c3ccc4[nH]cnc4c3)[C@H]1C2,,measured: body weight,human,"20 mg once daily, day 28, adjusted mean",reference: placebo,change from baseline,-0.24 kg
NC(=O)Nc1ccc(C(=O)CCl)cc1,UCHL1,"covalent, intact protein LC-MS",,12.5 µM,,labelling,19%
C=CCn1c(=O)c2cnc(Nc3ccc(N4CCN(C)CC4)cc3)nc2n1-c1ccc2c(n1)[C@@](O)(CC)CC2,,,"LS-513 xenograft, BALB/c nude mice","oral, 60 mg/kg once daily x 21, day 23",,tumour volume difference,1460 ± 147 mm3
C[C@H]1C[C@H]2CSC(N)=N[C@@]2(c2nc(NC(=O)c3ccc(OC(F)F)cn3)cs2)CO1,,measured: Aβx-40,"healthy adults, plasma","12 mg single dose, 8 h post-dose",reference: placebo,percent change from baseline,-53.3%
Nc1ncnc2c1ncn2[C@H]1C[C@@H]2OP(=O)(O)OC[C@H]3O[C@@H](n4cnc5c(N)ncnc54)C[C@@H]3OP(=O)(O)OC[C@H]2O1,,,BALB/c mouse CT26 tumour,"intratumoral, 0.5 mg/kg days 9,12,15",,complete response rate,80%
Cc1n[nH]c2ccc(-c3cc(OC[C@@H](N)Cc4ccccc4)cnc3-c3ccoc3)cc12,,"kinase binding, competitor, MIB/MS competition, measured: SCH9",Candida albicans cell lysate,1 µM,reference: DMSO,log2 fold change,-0.178
Cc1c(NC(=O)c2cccnc2)c(=O)n(-c2ccccc2)n1C,,histology,"Dmd C3333Y mice, quadriceps",dose not given,,necrotic area,9.6% and 9.1% and 11.2% and 10.3% and 7.4%
CSCCNc1nc(SCCC(F)(F)F)nc2c1ncn2[C@@H]1O[C@H](COP(=O)(O)OP(=O)(O)C(Cl)(Cl)P(=O)(O)O)[C@@H](O)[C@H]1O,,"platelet aggregation, light transmission aggregometry","human patients, platelet-rich plasma","dose not given, 2 h, together with: TRAP 5 µM",,patients with IPA above 90%,5.1%
N[C@@H](CC(=O)N1CCn2c(nnc2C(F)(F)F)C1)Cc1cc(F)c(F)cc1F,,,ZDF rat,"10 mg/kg/day, 6 weeks",reference: baseline,HbA1c change from baseline,2.63 ± 0.16 % points
CCN(Cc1nc2c(N)nc3cc(-c4cc[nH]n4)ccc3c2[nH]1)C(C)=O,,"immunohistochemistry, measured: CD163+ TAMs","patients with advanced solid tumours, injected tumour lesions","dose not given, monotherapy",reference: baseline,mean fold change,1.54
COc1ccc(-c2cncc(N[C@@H](C)c3cccc(NC(=O)c4cncc(C)c4)c3)n2)cc1OC,,measured: rno-miR-17-5p,"rat SU5416/hypoxia model, lung",dose not given,reference: SU5416/hypoxia vehicle,fold change,1.68
Cn1cc([C@H]2C[C@H]3CSC(N)=N[C@@]3(c3ccc(F)cc3F)CO2)cn1,,measured: Aβx-40,"Mus musculus wild-type, cerebrospinal fluid","subcutaneous, 10 mg/kg, 9 h",,Aβ40 level,1.33 ng/mL
CCCCCN1C[C@H](O)[C@@H](O)[C@H](O)[C@@H]1CO,,,"mouse Hexb-/-, plasma",30 mg/kg/day,reference: untreated Hexb-/- mice,number of increased sphingolipids,9
c1ccc(-c2n[nH]cc2-c2ccnc3ccccc23)nc1,,"kinase binding, competitor, MIB/MS competition, measured: SAK1",Candida albicans cell lysate,10 µM,reference: DMSO,log2 fold change,1.24
O=C(OC(C(F)(F)F)C(F)(F)F)N1CCN(Cc2cccc(Oc3ccccc3)c2)CC1,,PET blocking study,"rhesus monkey, brain Pons","0.1 mg/kg, compound pretreatment, together with: [18F]T-401 tracer",,k3,4 min⁻¹
O=C(O)CNC(=O)Cc1ccccc1,,,"ventricular cardiomyocytes, C57BL/6 mouse","dose not given, 0.288 s",,sarcomere length,1.69 µm
COC(=O)C1=C(C)NC(C)=C(C(=O)OC(C)(C)CN(C)CCC(c2ccccc2)c2ccccc2)C1c1cccc([N+](=O)[O-])c1 (stereo not drawn),Toxoplasma gondii,parasite growth,"HFF, bradyzoite, glutamine-induced",,,EC50,4.83 µM
C[C@H](Oc1ccc(Br)cc1-c1ccon1)C(=O)O,,muscle velocity recovery cycles,"human, tibialis anterior muscle","1200 mg single dose, 3.5 h post-dose, frequency ramp, last response at 15 Hz",,peak amplitude change,115%
N#Cc1ccc2c(-c3ccncc3)c(-c3ccc(F)cc3)nn2c1,,"kinase binding, competitor, MIB/MS competition, measured: TPK2",Candida albicans cell lysate,100 nM,reference: DMSO,log2 fold change,0.0438
CC(C)(C)c1ccc(S(=O)(=O)/C=C/C#N)cc1,Toxoplasma gondii,parasite growth,"HFF, bradyzoite, alkaline-induced",,,EC50,9.65 µM
CC(C)NCC(O)c1ccc(O)c(O)c1 (stereo not drawn),,,"ventricular cardiomyocytes, C57BL/6 mouse","dose not given, 0.328 s",,sarcomere length,1.72 µm

# A few entries again:
SMILES,target or system,assay,system,setting,how to read,measurement,result
Cn1cc([C@H]2C[C@H]3CSC(N)=N[C@@]3(c3ccc(F)cc3F)CO2)cn1,,measured: Aβx-40,"Mus musculus wild-type, cerebrospinal fluid","subcutaneous, 10 mg/kg, 9 h",,Aβ40 level,1.33 ng/mL
CCCCCN1C[C@H](O)[C@@H](O)[C@H](O)[C@@H]1CO,,,"mouse Hexb-/-, plasma",30 mg/kg/day,reference: untreated Hexb-/- mice,number of increased sphingolipids,9
c1ccc(-c2n[nH]cc2-c2ccnc3ccccc23)nc1,,"kinase binding, competitor, MIB/MS competition, measured: SAK1",Candida albicans cell lysate,10 µM,reference: DMSO,log2 fold change,1.24
O=C(OC(C(F)(F)F)C(F)(F)F)N1CCN(Cc2cccc(Oc3ccccc3)c2)CC1,,PET blocking study,"rhesus monkey, brain Pons","0.1 mg/kg, compound pretreatment, together with: [18F]T-401 tracer",,k3,4 min⁻¹
O=C(O)CNC(=O)Cc1ccccc1,,,"ventricular cardiomyocytes, C57BL/6 mouse","dose not given, 0.288 s",,sarcomere length,1.69 µm
